Measurements collected from several papers.
Parts stem from different laboratories: compare values within a part only. Positions count from the first letter of the parent shown.

Sample 1
Target: RING finger protein unkempt homolog, zinc fingers 1-6, SBP tag (UNK, Homo sapiens, UniProt Q9C0B0, residues 30-357)
Sequence of UniProt Q9C0B0 (30-357, looked up): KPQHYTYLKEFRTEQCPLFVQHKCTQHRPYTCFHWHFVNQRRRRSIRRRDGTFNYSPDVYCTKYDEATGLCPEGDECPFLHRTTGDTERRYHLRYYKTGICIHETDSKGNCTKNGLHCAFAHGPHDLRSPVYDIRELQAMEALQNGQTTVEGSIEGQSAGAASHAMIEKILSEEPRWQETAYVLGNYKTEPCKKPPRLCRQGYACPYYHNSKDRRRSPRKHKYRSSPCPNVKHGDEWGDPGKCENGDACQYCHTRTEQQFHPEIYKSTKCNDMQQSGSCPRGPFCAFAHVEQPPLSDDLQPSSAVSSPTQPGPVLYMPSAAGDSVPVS
Technique: RNA Bind-n-Seq
Molecule type: RNA
Sample: in vitro
Tested at: 100 nM
Setting: RNA with constant flanks, vertebrate orthologous sites, ends assumed
Relative to: input RNA pool
Reading: higher = stronger binding
All sequences stand within: GGGAGUUCUACAGUCCGACGAUC … CAACAGAGGAUUGAGCAUCA
Strand | bound/input enrichment
GAGCACUGCCUGUGUGUGCCCACAGCACUGAAGACAAAGCAGUAAUUCUAUAGUCACAGUAAGAUAGCUUCAGGGCAGCGUCACCAUGGUUCUCUCAUGGGCAGGUUCUGAAAAUGUACC | 0.287 ratio
AUUCCUUCCUUUUUCUAUUUUUUUUCUUUCGUUCUUUCUUUUUUCCUUUUUUCUUUUUUGUAGUUGUUGUUACCCACGCCAUUUUACGUCUCCUUCACUGAAGGGCUAGAGUUUUAACUU | 5.1 ratio
UCCAGUCUUACACUUACAGUUGGCCUCAAAUCUAUUGCAUUUAUGAUAAUGUAUUAUAUCUAGUUGAGUUUAAUAUUUUUUUAUUAGCUUGUAAAUAAAGAUGGCAUCUUCUACAUUAAA | 0.588 ratio
UUGGAUGAGGGUAGAGGGGAGGGAGGGACAGGACAGUGUGGAAUCCCUAGGGUAUUAUGGGUAGGUAGGGGGAACAGUUCUAAGUGGGCCUUUGUUAAAAACCUCUGGAGAUGUUUGUUC | 0.906 ratio
UAUUUUCUUAUUUUAGAUAUCAUUGCCCGAUGCCUAAGAUCUUUUAUGUUCAGCUCACUGUAGGAAAUAAUGAAUUUUUUGGGGAAGGGAAGACUCGACAAGCUGCUAGACACAAUGCCG | 1.01 ratio
CGGCAGAUUCUCUCAUAGGGAGAGCUGCACACAUUGCUGUUCUUGAUUCAGAAAUAUUUUUAGAAAAAUUCUUUCUUGUUGCUGCCCUAAAAUAUUUUCAGUAGGGAAUAGCAUUCUAAG | 0.317 ratio
CCUACAAUAAUGAAGCCCGACAGGAAUUUUUUUAUUUUCCAUUUCCCCUCUAGGCAUCCUUCGUCUCUUUUCCCCAGGGGCAUCACUCAGAGCGUGCGUGCGUGCGUGUGCACAUGUUUC | 0.316 ratio
UUCCUUAUUUCUUUCUUCCUGACUUUUUUUCUUUCGUUUCUUUUUUCUUUUUUUUUUUGGUAGUUGUUGUUACCCACGCCAUUUUACGUCUCCUUCACUGAAGGGCUAGAGUUUUAACUU | 2.46 ratio
UUCAGGCACAGCUAUCUGGUACUCAGCAUUCCUUACCUAACUAUUUAACGAGCGUAAGUGGAGUGUCAUUGCAGGACGCAUCCAGACAGUCACUUUUGUGCGCUCCCCUAGGAGCUCUUA | 0.435 ratio
AGUCCCCUGGGCCGGGACAGAUUUUUUUUUAACGUCUUGAAACUUAAAACUCUGUGCUUGUAGGAGACUGUAACCUUUUUGUCUUUUUUUUUUUAAACAAACAACCUCCACCUCCAGUGG | 0.768 ratio
GAAGAAUAGCAUAAGAAGUUGUGGUCAGAAAAGUUAGGAGCAGUUGGGGAAGGAAGUUACAAAUGUCAAAUAUCAAGAGCCAGAUGGAUAAAAUGUAGAGAUGAAGGUCAUUGAAACUCA | 0.666 ratio

Sample 2
Target: CCND3, cyclin fold, Cln2 fusion (human)
Technique: yeast growth competition, sequencing
Sample: yeast
Setting: weak parent motif
Relative to: not given
Reading: higher = stronger binding
Parent: RBL1 docking peptide (human); GSAKRRLFGEDPP; partner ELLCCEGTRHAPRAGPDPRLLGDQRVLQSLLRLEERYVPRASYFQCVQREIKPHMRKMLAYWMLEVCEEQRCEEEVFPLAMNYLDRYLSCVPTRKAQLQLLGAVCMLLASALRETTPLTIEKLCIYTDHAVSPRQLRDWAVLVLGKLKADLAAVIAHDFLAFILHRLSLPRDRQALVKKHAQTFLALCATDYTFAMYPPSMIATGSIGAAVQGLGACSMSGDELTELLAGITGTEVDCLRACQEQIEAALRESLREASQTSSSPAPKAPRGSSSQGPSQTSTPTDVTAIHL
Change | normalised enrichment score
GSNKRRLFGEDPP [A3N] | 0.0693
GSLKRRLFGEDPP [A3L] | 0.0848
GSANRRLFGEDPP [K4N] | 0.153
GSAKRRLCGEDPP [F8C] | 0.142
GSAFRRLFGEDPP [K4F] | 0.132
GSAKRRLVGEDPP [F8V] | 0.125
GSAKRRLFGEDQP [P12Q] | 0.137
GSAKRRLFGKDPP [E10K] | 0.145
GFAKRRLFGEDPP [S2F] | 0.0243
GSAKRVLFGEDPP [R6V] | 0.147
GSAKRRLNGEDPP [F8N] | 0.15
GSAKRRNFGEDPP [L7N] | 0.215
GSAKLRLFGEDPP [R5L] | 0.118
GSAKRRLFVEDPP [G9V] | 0.181
QSAKRRLFGEDPP [G1Q] | 0.121
GSAMRRLFGEDPP [K4M] | 0.13
GSAKRALFGEDPP [R6A] | 0.131
GSAKRRLFDEDPP [G9D] | 0.176
GSAKRRLFGEYPP [D11Y] | 0.237
GSAKRHLFGEDPP [R6H] | 0.132
GSHKRRLFGEDPP [A3H] | 0.0646
GSAKRRLFGEDKP [P12K] | 0.153
MSAKRRLFGEDPP [G1M] | -0.0168
GSGKRRLFGEDPP [A3G] | 0.115
GSAKRRLFGETPP [D11T] | 0.156

Sample 3
Target: Interferon regulatory factor 3, full length, phosphomimetic (IRF3, Homo sapiens, UniProt Q14653, residues 1-427, S386D/S396D/S398D/S402D/T404D/S405D)
Technique: protein-binding microarray
Molecule type: double-stranded DNA, one strand shown
Sample: in vitro
Tested at: 2540 nM top
Setting: 60-bp whole probe
Together with: salmon DNA 0.4 mg/ml
Relative to: random background probes
Reading: higher = stronger binding
All sequences stand within: GCCTAGCAC … GTCTTGATTCGCTTGACGCTGCTG
Residues (chain): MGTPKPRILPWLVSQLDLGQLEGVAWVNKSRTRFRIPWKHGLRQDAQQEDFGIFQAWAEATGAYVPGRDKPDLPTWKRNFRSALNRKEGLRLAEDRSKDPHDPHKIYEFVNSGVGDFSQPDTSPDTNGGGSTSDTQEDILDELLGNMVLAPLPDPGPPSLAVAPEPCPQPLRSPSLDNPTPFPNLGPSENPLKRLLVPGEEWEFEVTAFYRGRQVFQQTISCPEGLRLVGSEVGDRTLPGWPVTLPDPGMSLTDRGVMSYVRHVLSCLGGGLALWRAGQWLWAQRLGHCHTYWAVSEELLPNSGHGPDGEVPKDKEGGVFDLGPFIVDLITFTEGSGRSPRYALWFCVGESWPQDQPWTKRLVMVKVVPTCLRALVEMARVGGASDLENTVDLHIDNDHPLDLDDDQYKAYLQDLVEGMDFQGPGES
Strand | fitted relative affinity
TCAATGTTCCCTATTTAACTGTGCTAG | 2.39 z-score
TTAGAACTGGGACTGGGTTAGTGCTAG | -0.922 z-score
GTCATACGAGCGGTAGCCAAGTGCTAG | -0.292 z-score
TCACTTATCCCTAATCTCACTGTGCTA | 1.1 z-score
GACGAACTGGGGTTGCGAGACGTGCTA | -0.393 z-score
AAGACCATCCTGTGTCTTAAAGTGCTA | 0.0712 z-score
TTAGGTTGCGGGTATCGGTTAGTGCTA | 2.21 z-score
GACGATTTCAGACTAGAGACGTGCTAG | 1.33 z-score
GACGAACCGGGGTATCGAGACGTGCTA | -0.425 z-score
TTAGGTTTCGGGCTCGGTTAGTGCTAG | 3.28 z-score
TCCAACCTGCTGAATCAAAAGTGCTAG | 0.6 z-score
TATGGCTTCAAGTAACTACAGTGCTAG | -0.716 z-score
GACGGACTGGGTATAGGGACGTGCTAG | -0.732 z-score
TCATGAATGCCCTTCCATACTGTGCTA | -0.0434 z-score
TTAGGACTGCGTCTCGGTTAGTGCTAG | -0.568 z-score
CCCTTTTAAGTTCTCTGAAGGTGCTAG | 3.23 z-score
TTAGGTTCGCTTTTCCTTTAGTGCTAG | 3.69 z-score
TCAAGTTTACCCATCTCCAGGTGCTAG | 1.42 z-score
TTAGGACTGGGGTAACGGTTAGTGCTA | -0.895 z-score
GACGGTTTCGGGGATCGGGACGTGCTA | 3 z-score
TTAGGTTCCCTTTTACTTTAGTGCTAG | 7.63 z-score
TCATTGTTCTCTCTGGCACTGTGCTAG | 0.302 z-score
TCACCTCTCATTCCAATACTGTGCTAG | 1.26 z-score
TCACACATGCATCTCCCACTGTGCTAG | -0.000142 z-score
TTAGGACTGGGCATCGGTTAGTGCTAG | -1.04 z-score

Sample 4
Target: Histone acetyltransferase KAT6A, winged helix 1, GST fusion (KAT6A, Homo sapiens, UniProt Q92794, residues 1-85)
Technique: protein binding microarray
Molecule type: double-stranded DNA, one strand shown
Sample: in vitro
Tested at: not given
Setting: 8-mer, flanks averaged, mean of 2 arrays, mostly near background
Relative to: not given
Reading: higher = stronger binding
Residues (chain): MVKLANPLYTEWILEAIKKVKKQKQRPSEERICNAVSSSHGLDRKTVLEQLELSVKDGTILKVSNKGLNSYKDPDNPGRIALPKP
Strand | E-score
AAAGAAGC | -0.0199
GGCACGCA | 0.118
GAAGCTGA | -0.00721
CCCGCAAC | 0.277
AACGTAAT | -0.0864
ACGGTCGA | 0.185
ACAACTAG | -0.0755
GCTACATA | -0.0853
CGAGGAGC | -0.0533
CACTACGG | 0.228
GGAGTTGA | -0.0905
CACCGGGA | 0.172
CGATCTTC | 0.0428
ACCTGTCA | -0.136
ATGTAACC | 0.224
GAGGGTAC | -0.0781
CAAGCATA | -0.182
GCGGCAGC | 0.353
GACTGCCC | 0.0245
GACGAGCA | -0.25
AAGCTGAC | -0.0999
ACGGGCCT | 0.339
CGATGGTA | 0.0301
CTCTTCGC | -0.027
GAGGCCCC | -0.0413

Sample 5
Target: ABI1, truncated, D143A, DHFR fusion (Arabidopsis thaliana)
Technique: DHFR PCA, deep sequencing
Sample: yeast
Setting: methotrexate growth selection, single substitutions
Together with: (+)-ABA 0 µM
Relative to: wild-type fitted maximum
Reading: higher = stronger binding
Parent: PYL1, truncated, DHFR fusion (Arabidopsis thaliana); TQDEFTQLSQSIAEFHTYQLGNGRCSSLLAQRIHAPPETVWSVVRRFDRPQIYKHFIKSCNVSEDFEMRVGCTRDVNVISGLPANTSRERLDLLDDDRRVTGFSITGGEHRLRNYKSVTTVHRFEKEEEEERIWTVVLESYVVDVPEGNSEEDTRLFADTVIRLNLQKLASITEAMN; partner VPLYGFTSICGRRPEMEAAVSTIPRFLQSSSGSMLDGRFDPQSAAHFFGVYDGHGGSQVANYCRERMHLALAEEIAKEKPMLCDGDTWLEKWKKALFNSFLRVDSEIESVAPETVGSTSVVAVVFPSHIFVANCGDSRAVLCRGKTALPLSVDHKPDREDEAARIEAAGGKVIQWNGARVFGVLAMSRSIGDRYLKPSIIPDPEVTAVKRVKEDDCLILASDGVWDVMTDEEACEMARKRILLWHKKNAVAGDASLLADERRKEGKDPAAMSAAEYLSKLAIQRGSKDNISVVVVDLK
Change | relative binding score
Q10C | 4.01%
V44W | 2.76%
D48C | -4%
C72E | 12.2%
R123K | 54.7%
R98T | -7.56%
E127C | 27.2%
L156K | -5.09%
A13I | 8.59%
E38S | 4.48%
S63A | 46.1%
E4Y | 18.3%

Sample 6
Target: Sal-like protein 4, full length isoform A (SALL4, Homo sapiens, UniProt Q9UJQ4, residues 1-1053)
Sequence of UniProt Q9UJQ4 (whole entry, looked up): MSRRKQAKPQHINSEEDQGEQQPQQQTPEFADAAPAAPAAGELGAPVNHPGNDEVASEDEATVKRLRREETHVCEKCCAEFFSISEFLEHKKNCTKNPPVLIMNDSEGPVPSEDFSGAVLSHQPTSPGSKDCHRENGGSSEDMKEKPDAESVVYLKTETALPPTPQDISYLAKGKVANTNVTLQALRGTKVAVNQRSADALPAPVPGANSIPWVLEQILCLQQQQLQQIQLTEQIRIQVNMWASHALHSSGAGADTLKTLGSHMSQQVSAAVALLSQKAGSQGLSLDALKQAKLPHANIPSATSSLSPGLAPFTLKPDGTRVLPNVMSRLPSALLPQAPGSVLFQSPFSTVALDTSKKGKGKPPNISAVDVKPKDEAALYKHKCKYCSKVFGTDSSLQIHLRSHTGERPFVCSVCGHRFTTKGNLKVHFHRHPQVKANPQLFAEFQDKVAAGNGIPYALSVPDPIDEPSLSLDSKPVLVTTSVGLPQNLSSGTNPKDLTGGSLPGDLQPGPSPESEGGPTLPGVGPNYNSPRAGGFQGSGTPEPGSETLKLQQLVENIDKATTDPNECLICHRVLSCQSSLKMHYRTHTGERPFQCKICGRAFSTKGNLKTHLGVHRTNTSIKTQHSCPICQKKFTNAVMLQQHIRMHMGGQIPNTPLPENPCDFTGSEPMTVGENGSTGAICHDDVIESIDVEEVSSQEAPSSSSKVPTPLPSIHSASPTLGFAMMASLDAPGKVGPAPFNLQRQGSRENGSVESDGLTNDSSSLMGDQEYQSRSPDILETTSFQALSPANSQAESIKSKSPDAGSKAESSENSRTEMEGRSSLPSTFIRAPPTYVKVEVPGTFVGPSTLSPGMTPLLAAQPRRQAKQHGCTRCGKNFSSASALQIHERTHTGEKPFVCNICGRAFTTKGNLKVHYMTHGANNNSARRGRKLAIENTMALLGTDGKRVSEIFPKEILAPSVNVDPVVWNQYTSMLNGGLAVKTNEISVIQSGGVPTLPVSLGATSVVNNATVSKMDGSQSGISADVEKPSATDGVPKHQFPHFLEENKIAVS
Technique: universal PBM
Molecule type: double-stranded DNA, one strand shown
Sample: in vitro
Tested at: 600 nM
Setting: 8-mer, flanks averaged, mean of replicates
Reading: higher = stronger binding
Strand | E-score
ATCGACCG | -0.121
CACCGTGG | -0.316
ACCCGAGG | -0.231
CTTCCGGA | -0.153
ATCCCAGC | -0.195
CTGTGCTC | 0.0024
ATAATTCG | 0.321
ATGTAAAA | 0.323
AAAAGGCT | 0.0069
GGGTCAAC | -0.173
AGTTTGTA | 0.143
ATCTGGGA | -0.0496
ACGACGTC | -0.159
AGCGCCTA | -0.0846
CCAGCTAA | -0.0807
CGTCGCGA | -0.201
TTCAGGAA | 0.0931
GCAGCAGA | -0.184
AACTTTTG | 0.186
CCCAAACA | 0.0619
AAGCAAAA | 0.236
ACGTAGGC | -0.139
GGTTTTCA | 0.186
ACAATCCC | 0.0438
AGTATCCC | -0.202

Single results of other studies
Molecule | target | assay | system | conditions | scale | measurement | result
PhoQ, residues 284 288 289 292 302 303 SSYNSA | PhoP, residues 12 14 15 18 19 VQALL (Escherichia coli, UniProt P23836) | Sort-seq, refers to: YFP reporter | E. coli | PhoQ-PhoP variant library, together with: 10 µM Mg2+ | relative to: high Mg2+ state, higher = stronger signaling | fold induction | 16.2

For quick reference, copied from above (sample 4):
Strand | E-score
AAAGAAGC | -0.0199
GGCACGCA | 0.118
GAAGCTGA | -0.00721
CCCGCAAC | 0.277
AACGTAAT | -0.0864
ACGGTCGA | 0.185
ACAACTAG | -0.0755
GCTACATA | -0.0853
CGAGGAGC | -0.0533
CACTACGG | 0.228
GGAGTTGA | -0.0905
CACCGGGA | 0.172
CGATCTTC | 0.0428
ACCTGTCA | -0.136
ATGTAACC | 0.224
GAGGGTAC | -0.0781
CAAGCATA | -0.182
GCGGCAGC | 0.353
